Published values gathered from unrelated publications.
Lines come from different studies, so protocols differ. Several values in a cell are separate wells, animals, samples, runs or records. ± marks the error that the study gave.
Uridine nucleoside ribohydrolase: Uridine nucleoside ribohydrolase (Trichomonas vaginalis, UniProt A2FTT0)
MMP2: 72 kDa type IV collagenase (MMP2, Homo sapiens, UniProt P08253)
UniProt P08253, sequence (whole entry, looked up): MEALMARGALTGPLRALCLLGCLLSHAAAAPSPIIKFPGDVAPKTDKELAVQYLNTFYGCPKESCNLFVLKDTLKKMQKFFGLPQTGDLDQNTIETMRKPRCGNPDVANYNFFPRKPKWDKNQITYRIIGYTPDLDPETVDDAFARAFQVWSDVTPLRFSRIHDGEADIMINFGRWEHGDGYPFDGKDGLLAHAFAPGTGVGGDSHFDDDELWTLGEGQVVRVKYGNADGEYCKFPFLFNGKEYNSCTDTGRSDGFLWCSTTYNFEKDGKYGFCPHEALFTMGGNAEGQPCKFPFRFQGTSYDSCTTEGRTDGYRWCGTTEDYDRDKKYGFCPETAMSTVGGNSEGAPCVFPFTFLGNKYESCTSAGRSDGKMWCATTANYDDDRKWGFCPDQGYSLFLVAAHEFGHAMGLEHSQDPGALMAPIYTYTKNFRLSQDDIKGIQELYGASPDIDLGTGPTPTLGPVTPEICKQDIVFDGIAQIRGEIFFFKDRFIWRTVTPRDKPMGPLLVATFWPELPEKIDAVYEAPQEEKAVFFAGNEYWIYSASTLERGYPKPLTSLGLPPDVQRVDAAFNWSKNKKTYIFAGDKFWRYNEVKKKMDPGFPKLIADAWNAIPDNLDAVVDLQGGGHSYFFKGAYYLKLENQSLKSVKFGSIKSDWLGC
Alpha-amylase: Alpha-amylase (Bos taurus, UniProt Q3MHH8)
HDAC6: Protein deacetylase HDAC6 (HDAC6, Homo sapiens, UniProt Q9UBN7)
TNKS2: Poly [ADP-ribose] polymerase tankyrase-2 (TNKS2, Homo sapiens, UniProt Q9H2K2)
UniProt Q9H2K2, sequence (whole entry, looked up): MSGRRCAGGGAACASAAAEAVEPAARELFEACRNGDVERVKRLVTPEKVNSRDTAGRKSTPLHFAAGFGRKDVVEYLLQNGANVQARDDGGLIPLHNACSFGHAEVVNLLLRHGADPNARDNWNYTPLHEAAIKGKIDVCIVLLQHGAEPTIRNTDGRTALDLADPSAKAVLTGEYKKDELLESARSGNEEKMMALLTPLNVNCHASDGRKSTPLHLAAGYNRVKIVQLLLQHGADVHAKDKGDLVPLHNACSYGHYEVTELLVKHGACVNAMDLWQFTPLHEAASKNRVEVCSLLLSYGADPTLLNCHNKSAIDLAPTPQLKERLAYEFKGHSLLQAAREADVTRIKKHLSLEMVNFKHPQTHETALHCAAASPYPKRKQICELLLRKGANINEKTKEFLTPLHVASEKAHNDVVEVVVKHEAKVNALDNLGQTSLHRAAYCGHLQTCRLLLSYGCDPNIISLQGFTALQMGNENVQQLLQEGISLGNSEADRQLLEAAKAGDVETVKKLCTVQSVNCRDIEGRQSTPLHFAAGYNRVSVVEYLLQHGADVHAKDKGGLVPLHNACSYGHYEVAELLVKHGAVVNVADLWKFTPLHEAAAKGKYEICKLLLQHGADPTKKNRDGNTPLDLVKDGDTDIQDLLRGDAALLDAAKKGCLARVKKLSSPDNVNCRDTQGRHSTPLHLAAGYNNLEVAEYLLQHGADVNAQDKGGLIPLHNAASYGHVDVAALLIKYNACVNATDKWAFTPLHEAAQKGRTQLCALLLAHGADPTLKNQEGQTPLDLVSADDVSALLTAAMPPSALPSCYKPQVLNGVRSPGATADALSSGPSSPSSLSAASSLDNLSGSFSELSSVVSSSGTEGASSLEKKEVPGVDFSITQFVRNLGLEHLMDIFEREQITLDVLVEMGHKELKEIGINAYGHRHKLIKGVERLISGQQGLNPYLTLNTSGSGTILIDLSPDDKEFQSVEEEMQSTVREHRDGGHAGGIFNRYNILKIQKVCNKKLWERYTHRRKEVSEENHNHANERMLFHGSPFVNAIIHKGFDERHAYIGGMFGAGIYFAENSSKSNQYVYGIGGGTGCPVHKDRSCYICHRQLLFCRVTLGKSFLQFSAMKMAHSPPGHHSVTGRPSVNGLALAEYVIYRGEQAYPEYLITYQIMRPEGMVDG
HTR1D: 5-hydroxytryptamine receptor 1D (HTR1D, Homo sapiens, UniProt P28221)
UniProt P28221, sequence (whole entry, looked up): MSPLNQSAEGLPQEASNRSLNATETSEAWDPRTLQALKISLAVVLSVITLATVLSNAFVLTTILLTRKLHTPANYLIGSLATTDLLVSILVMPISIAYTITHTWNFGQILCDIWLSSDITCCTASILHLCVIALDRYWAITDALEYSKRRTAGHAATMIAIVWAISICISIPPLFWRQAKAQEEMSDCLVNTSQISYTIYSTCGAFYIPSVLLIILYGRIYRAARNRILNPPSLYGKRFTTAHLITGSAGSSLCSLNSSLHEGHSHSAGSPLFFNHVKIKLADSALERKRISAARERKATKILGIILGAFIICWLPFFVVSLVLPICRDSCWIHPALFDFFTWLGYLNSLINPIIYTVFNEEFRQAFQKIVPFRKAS
NPY2R: Neuropeptide Y receptor type 2 (NPY2R, Homo sapiens, UniProt P49146)
UniProt P49146, sequence (whole entry, looked up): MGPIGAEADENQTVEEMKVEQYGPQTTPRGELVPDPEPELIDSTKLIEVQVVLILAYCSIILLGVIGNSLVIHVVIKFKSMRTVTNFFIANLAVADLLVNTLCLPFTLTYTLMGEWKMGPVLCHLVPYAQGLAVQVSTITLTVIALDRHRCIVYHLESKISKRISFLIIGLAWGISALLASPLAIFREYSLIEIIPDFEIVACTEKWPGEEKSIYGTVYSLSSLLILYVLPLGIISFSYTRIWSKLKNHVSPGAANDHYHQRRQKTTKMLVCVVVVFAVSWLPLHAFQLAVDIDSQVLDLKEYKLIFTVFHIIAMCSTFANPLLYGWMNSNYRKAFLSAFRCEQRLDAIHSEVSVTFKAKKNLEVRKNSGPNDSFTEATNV
PHGDH: D-3-phosphoglycerate dehydrogenase (PHGDH, Homo sapiens, UniProt O43175)
UniProt O43175, sequence (whole entry, looked up): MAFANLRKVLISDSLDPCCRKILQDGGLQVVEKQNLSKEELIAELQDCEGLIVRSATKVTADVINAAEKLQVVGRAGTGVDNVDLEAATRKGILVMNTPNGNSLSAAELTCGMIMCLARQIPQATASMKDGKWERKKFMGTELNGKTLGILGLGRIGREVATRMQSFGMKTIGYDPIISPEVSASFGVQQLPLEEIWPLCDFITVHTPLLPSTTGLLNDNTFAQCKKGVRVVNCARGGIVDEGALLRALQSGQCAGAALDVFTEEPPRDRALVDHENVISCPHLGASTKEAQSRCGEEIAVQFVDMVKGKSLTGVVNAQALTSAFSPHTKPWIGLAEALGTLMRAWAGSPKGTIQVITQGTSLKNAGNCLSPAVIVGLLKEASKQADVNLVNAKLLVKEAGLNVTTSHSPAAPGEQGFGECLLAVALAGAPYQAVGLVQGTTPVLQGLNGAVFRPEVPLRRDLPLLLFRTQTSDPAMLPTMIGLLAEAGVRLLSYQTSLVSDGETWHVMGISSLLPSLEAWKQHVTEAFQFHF
SPHK2: Sphingosine kinase 2 (SPHK2, Homo sapiens, UniProt Q9NRA0)
UniProt Q93009, sequence (whole entry, looked up): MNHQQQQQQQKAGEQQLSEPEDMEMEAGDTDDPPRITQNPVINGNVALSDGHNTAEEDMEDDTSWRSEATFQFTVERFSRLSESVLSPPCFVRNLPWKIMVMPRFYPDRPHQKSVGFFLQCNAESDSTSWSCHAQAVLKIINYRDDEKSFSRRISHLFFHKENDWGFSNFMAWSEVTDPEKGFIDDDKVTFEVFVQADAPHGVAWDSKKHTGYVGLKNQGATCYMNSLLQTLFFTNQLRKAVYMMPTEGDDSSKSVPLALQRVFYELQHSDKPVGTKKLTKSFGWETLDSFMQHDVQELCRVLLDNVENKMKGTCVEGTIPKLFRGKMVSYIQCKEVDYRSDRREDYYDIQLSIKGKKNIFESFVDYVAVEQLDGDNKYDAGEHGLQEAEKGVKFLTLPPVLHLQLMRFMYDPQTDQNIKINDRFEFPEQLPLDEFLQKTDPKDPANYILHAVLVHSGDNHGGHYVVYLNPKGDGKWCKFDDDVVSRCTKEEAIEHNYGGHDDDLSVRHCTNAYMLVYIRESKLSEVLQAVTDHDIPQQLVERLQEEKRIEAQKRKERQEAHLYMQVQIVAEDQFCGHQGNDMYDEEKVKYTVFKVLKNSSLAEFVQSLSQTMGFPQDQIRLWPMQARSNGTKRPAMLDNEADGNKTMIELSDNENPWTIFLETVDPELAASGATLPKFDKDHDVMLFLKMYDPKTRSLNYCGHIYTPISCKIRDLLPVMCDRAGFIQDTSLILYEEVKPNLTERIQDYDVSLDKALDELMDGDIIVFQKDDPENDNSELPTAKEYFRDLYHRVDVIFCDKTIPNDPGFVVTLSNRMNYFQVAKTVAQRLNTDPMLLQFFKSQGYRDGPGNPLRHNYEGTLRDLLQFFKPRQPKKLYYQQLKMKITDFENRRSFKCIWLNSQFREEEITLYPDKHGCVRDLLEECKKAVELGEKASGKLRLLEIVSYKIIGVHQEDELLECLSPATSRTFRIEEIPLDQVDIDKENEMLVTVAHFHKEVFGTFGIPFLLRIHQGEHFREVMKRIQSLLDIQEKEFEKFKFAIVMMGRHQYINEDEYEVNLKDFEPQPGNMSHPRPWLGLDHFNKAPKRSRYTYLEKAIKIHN
UniProt P25106, sequence (whole entry, looked up): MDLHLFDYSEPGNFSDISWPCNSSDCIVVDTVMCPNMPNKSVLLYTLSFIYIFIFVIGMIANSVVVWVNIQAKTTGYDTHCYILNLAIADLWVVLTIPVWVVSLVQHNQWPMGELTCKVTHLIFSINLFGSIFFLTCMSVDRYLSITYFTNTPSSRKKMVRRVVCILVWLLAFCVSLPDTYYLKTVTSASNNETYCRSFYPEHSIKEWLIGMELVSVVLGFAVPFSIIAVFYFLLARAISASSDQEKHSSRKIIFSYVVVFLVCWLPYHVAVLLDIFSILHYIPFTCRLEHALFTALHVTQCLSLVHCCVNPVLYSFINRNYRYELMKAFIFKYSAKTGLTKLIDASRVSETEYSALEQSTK
UniProt Q00534, sequence (whole entry, looked up): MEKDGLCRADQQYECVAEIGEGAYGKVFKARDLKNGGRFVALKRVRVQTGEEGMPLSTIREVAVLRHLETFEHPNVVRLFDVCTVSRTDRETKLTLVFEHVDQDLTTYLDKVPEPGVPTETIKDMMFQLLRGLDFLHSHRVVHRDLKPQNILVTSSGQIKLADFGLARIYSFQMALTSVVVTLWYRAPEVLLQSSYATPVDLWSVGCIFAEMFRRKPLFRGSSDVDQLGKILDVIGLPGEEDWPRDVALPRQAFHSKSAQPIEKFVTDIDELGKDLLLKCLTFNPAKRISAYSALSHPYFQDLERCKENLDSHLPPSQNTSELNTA

| SMILES | target or system | test | test system | setting | scale | quantity | value |
| --- | --- | --- | --- | --- | --- | --- | --- |
| Cc1cccnc1-c1ccc(C(N)=O)cc1 | Uridine nucleoside ribohydrolase | 19F NMR |  | 100 µM |  | inhibition | 100% |
| O=C(CNc1nc(NNC(=O)c2ccc(Nc3nc(Nc4ccc(C(=O)NNc5nc(NCC(=O)NO)nc(N6CCCCC6)n5)cc4)nc(Nc4ccc(C(=O)NNc5nc(NCC(=O)NO)nc(N6CCCCC6)n5)cc4)n3)cc2)nc(N2CCCCC2)n1)NO | MMP2 | enzyme activity, inhibitor, fluorescence |  | 0.01 µg/mL |  | inhibition | 86% |
| CN(C)C/C=C/C(=O)Nc1ccc2nc(NCCCCCN(C)C)nc(NCCCCCCN(C)C)c2c1 | SMYD2 (Homo sapiens, UniProt Q9NRG4) | enzyme activity, inhibitor, radiometric |  | 10 µM |  | inhibition | 48% |
| Cc1cc(Cl)cc(-c2ccnc3cc(CN4C(=O)C5C(C4=O)C5(C)C)sc23)c1C[C@@H]1CNCCO1 (stereo partly shown) | USP7 (Homo sapiens, UniProt Q93009) | enzyme activity, inhibitor |  | 0.05 µM |  | inhibition | 121% and 113% |
| CC1=NN(c2ccccc2F)C(=O)/C1=N\Nc1ccc(S(N)(=O)=O)cc1 | Alpha-amylase | enzyme activity, inhibitor, glucose oxidase |  | 200 µg/mL, added: dextrin |  | inhibition | 16.1% |
| Cc1cccnc1-c1cccc(C#N)c1 | Uridine nucleoside ribohydrolase | 19F NMR |  | 50 µM, added: 0.01% Triton X-100 |  | inhibition | 100% |
| CCC(=O)N(C)c1ccc(Cl)c(Cl)c1 | AGTR1 (Homo sapiens, UniProt P30556) | ligand displacement, radioligand |  | 10 µM |  | inhibition | < 10% |
| CCc1ccc(N2CCC(O)C2)cc1 (stereo not shown) | Uridine nucleoside ribohydrolase | 19F NMR |  | 50 µM |  | inhibition | 12% |
| CN1CCc2c(sc3c2c(=O)n(-c2ccccc2)c2nnc(SCc4ccccc4)n32)C1 | Trypanosoma cruzi | reporter mRNA translation, inhibitor, refers to: Renilla luciferase mRNA | cell-free extract | concentration not given, test 1 | reference: positive over negative control | translation activity | 110% and 106% |
| CC(=O)Nc1ccc(F)cc1-c1ccncc1 | Uridine nucleoside ribohydrolase | 19F NMR |  | 50 µM |  | inhibition | 45.8% |
| Cc1cc(OS(=O)(=O)Oc2ccccc2-c2ccccc2)cc(C(=O)NO)c1 | HDAC6 | enzyme activity, inhibitor, fluorescence |  | 10 µM |  | inhibition | 40% |
| Cc1cc(C(=O)NCCNC(=O)c2cccc(COc3ccccc3C(N)=O)c2)n[nH]1 | TNKS2 | enzyme activity, inhibitor |  | 0.5 µM |  | inhibition | 100% |
| COc1ccc(CN2CC3CCCCN3C2=O)cc1 (stereo not shown) | Uridine nucleoside ribohydrolase | inhibitor, 19F NMR jump dilution |  | 20 µM, 1-fold dilution |  | inhibition | 100% |
| c1ccc(OC[C@H]2CN(CCN3CCc4ccccc43)CCO2)nc1 | HTR1D | radioligand binding |  | concentration not given, added: [3H]5-CT |  | inhibition | 20.2% |
| C=CC(=O)N1CCCC(n2c(=O)c3ncccc3n(Cc3ccc(Oc4ccccc4)cc3)c2=O)C1 (stereo not shown) | CAMK1D (Homo sapiens, UniProt Q8IU85) | cell-free assay, competition with immobilised ligand |  | 1 µM |  | remaining binding | 96% |
| CCOC(=O)C1CCCN(Cc2ccc(-c3ccccc3)cc2)C1 (stereo not shown) | Trypanosoma cruzi | reporter mRNA translation, inhibitor, refers to: Renilla luciferase mRNA | cell-free extract | concentration not given, test 1 | reference: positive over negative control | translation activity | 113% and 136% |
| N=C(N)NCCCC(NC(=O)C(CC(=O)NO)Cc1ccc2ccccc2c1)C(=O)NC(Cc1c[nH]c2ccccc12)C(=O)NC(CCC(=O)O)C(N)=O (stereo not shown) | Matrix metalloproteinase-20 (Homo sapiens, UniProt O60882) |  |  | 1 µM |  | inhibition | 2% |
| CN1CCN(CC(=O)c2ccccc2)C1=O | Uridine nucleoside ribohydrolase | 19F NMR |  | 50 µM |  | inhibition | 44.5% |
| COCC(=O)N1CCc2cc(-c3csc(NC(=O)c4cc(OC)cc(OC)c4)n3)ccc21 | phorbol ester receptor, mouse | radioligand binding |  | 10 µM |  | inhibition | -4% |
| O=C(CCCc1ccc2c(c1)OCCO2)NCCNC(=O)Cn1c(=O)[nH]c(=O)c2ccccc21 | TNKS2 | enzyme activity, inhibitor |  | 0.5 µM |  | inhibition | 12% |
| O=C(Nc1ccc(C(F)F)cc1)[C@H](CC1CCCCC1)Nc1nn2c(=O)ccnc2s1 | Serine/threonine-protein phosphatase (Escherichia phage lambda, UniProt P03772) | enzyme activity, inhibitor |  | 10 µM |  | inhibition | -12% |
| NC(=O)C[C@H]1CCc2sc3ncnc(O[C@H]4CC[C@H](N5CCOCC5)CC4)c3c21 | TTBK2 (Homo sapiens, UniProt Q6IQ55) | enzyme activity, inhibitor |  | 10 µM |  | inhibition | 0% |
| Brc1ccccc1-c1nnc(CSc2nnnn2-c2ccccc2)o1 | HTR1D | ligand displacement, radioligand |  | 10 µM |  | inhibition | -5% |

| SMILES | target or system | test | test system | setting | scale | quantity | value |
| --- | --- | --- | --- | --- | --- | --- | --- |
| C[Si](C)(C)C[C@H](CN)CC(=O)O | NPY2R | ligand displacement, radioligand |  | 250 µM |  | inhibition | 3% |
| CN(Cc1ccc(/C=C/C(=O)NO)cc1)CC12CC3CC(CC(C3)C1)C2 | human NTS1 receptor | agonist radioligand binding |  | 0.05 µM |  | inhibition | -5% |
| CCCCCCCCCCCCCCN(O)C(=O)CCCCC[C@@H]1NC(=O)[C@H]([C@@H](C)CC)NC(=O)[C@H](Cc2ccccc2C(F)(F)F)NC(=O)CCSCc2cccc(n2)CSCCCNC1=O | HDAC6 | enzyme activity, inhibitor, fluorogenic |  | 30 µM |  | inhibition | 30% |
| COC(=O)c1cccc2c1NC(=O)C21CC(NC(=O)OC(C)(C)C)C(=O)O1 (stereo not shown) | PHGDH | enzyme activity, inhibitor |  | 25 µM |  | inhibition | 54.4% |
| CC1=NN(c2cccc(F)c2)C(=O)/C1=N\Nc1ccc(S(N)(=O)=O)cc1 | Alpha-amylase | enzyme activity, inhibitor, glucose oxidase |  | 500 µg/mL, added: dextrin |  | inhibition | 20.9% |
| Cc1cccc(O[C@H]2CCC[C@@H](C(C)CNCc3ccncc3)C2)c1 (relative stereo) | SPHK2 | enzyme activity, inhibitor |  | 1 µM |  | inhibition | 1% |
| O=C(CC1CC2CCC1C2)NCCNC(=O)Cn1c(=O)[nH]c(=O)c2ccccc21 (stereo not shown) | TNKS2 | enzyme activity, inhibitor |  | 5 nM |  | inhibition | 0% |
| CS(=O)(=O)Nc1cccc(-c2csc3cnc(Nc4ccc(N5CCN(CCCCCOc6cccc7c6C(=O)N(C6CCC(=O)NC6=O)C7=O)CC5)cc4)nc23)c1 (stereo not shown) | Diacylglycerol kinase eta (DGKH, Homo sapiens, UniProt Q86XP1) | probe labelling, inhibitor, KiNativ chemoproteomics | MOLT-4 | 1 µM |  | inhibition | -13.7% |
| C=CC(=O)N1Cc2nc(-c3cc(-c4cc(Cl)cnc4Cl)c(F)cc3F)n(-c3ccncn3)c2C1 | SPHK2 | cell-free assay, inhibitor |  | 1 µM |  | inhibition | -14.4% |
| CC(=O)Nc1ccccc1-c1ccc(O)cc1 | Uridine nucleoside ribohydrolase | 19F NMR |  | 100 µM |  | inhibition | 100% |
| N#Cc1ccnc(N2C(=O)CC[C@H]2C(=O)N(c2cncc(F)c2)[C@H](C(=O)NC2CC(F)(F)C2)c2ccccc2Cl)c1 | PHGDH | enzyme activity |  | 100 µM |  | inhibition | no inhibition |
| C/C=C/C(=O)Nc1ccc2nc(NCCCCCN(C)C)nc(NCCCCCCN(C)C)c2c1 | PRDM9 (Homo sapiens, UniProt Q9NQV7) | enzyme activity, inhibitor, radiometric |  | 10 µM |  | inhibition | 47% |
| O=C1c2sc(-c3ccc(N4CCC(CO)CC4)nc3F)nc2CCN1c1cccnc1 | GABA-gated chloride channel | radioligand binding |  | 1 µM, added: antagonist radioligand |  | inhibition | 18% |
| Cn1cc(-c2ccc(C(N)=O)cc2)cn1 | Uridine nucleoside ribohydrolase | 19F NMR |  | 100 µM |  | inhibition | 100% |
| O=C(CNc1nc(Cl)nc(NNC(=O)c2ccc(Nc3nc(Nc4ccc(C(=O)NNc5nc(Cl)nc(NCC(=O)NO)n5)cc4)nc(Nc4ccc(C(=O)NNc5nc(Cl)nc(NCC(=O)NO)n5)cc4)n3)cc2)n1)NO | MMP2 | enzyme activity, inhibitor, fluorescence |  | 1e-05 µg/mL |  | inhibition | 15% |
| CC[C@H](C)C(=O)O[C@H]1C[C@@H](C)C=C2C=C[C@H](C)[C@H](CC[C@@H]3CC=CC(=O)O3)[C@H]21 | CFTR (Homo sapiens, UniProt P13569) | ion current, inhibitor | T84 | 5 µM |  | inhibition | ~85% |
| CC(=O)C12NC(C)(C)CC1(C)C(=O)C1=C2c2c(c3c4n2C(C)(C)CC2=C4C4(CC(C)(C)NC(C)(C4)C2=O)CC3(C)C)C(=O)C(C)(C)N1 (single isomer, unassigned; (-)) | TRPM3 (Homo sapiens, UniProt Q9HCF6) | antagonist | HEK293T | 10 µM |  | inhibition | 23.76 ± 0.03% |
| O=C1CO[C@H](CNC(=O)C2(c3ccc(Cl)cc3)CC2)CN1C1Cc2ccccc2C1 | ACKR3 (Homo sapiens, UniProt P25106) | β-arrestin recruitment, antagonist |  | 1 µM |  | inhibition | 9% |
| Cc1cccc(C)c1CNc1cc(C(=O)N2CCC2)cn2c(C)c(C)nc12 | Na+/K+-ATPase (pig) | enzyme activity | cerebral cortex | 10 µM |  | inhibition | 4.2% |
| CCn1cc(C(=O)O)c(=O)c2c(N)c(F)c(NC3CCCCC3)cc21 | Cyclin-dependent kinase 6, with cyclin D1 (CDK6, Homo sapiens, UniProt Q00534) | kinase activity |  | 0.1 µM, added: ATP at Km |  | inhibition | 52% |
| CN1CCN(Cc2ccc(-c3ccc(CO[C@H]4CCC[C@@H]4NC(=O)c4cc(-c5cnn(C)c5)cnc4N)cc3)cc2)CC1 | SPHK2 | enzyme activity, inhibitor |  | 0.1 µM |  | inhibition | -3% |
| Cn1ccc2cc(-n3c(=O)[nH]c4sc5c(c4c3=O)CCCC5)ccc21 | NPY2R | cell-free assay |  | 10 µM |  | inhibition | -8% |
| C[Si]1(C[C@H](CN)CC(=O)O)CCCC1 | SSTR1 (Homo sapiens, UniProt P30872) | ligand displacement, radioligand |  | 70 µM |  | inhibition | 0% |

Some of these lines once more:
| SMILES | target or system | test | test system | setting | scale | quantity | value |
| --- | --- | --- | --- | --- | --- | --- | --- |
| CC(=O)Nc1ccccc1-c1ccc(O)cc1 | Uridine nucleoside ribohydrolase | 19F NMR |  | 100 µM |  | inhibition | 100% |
| N#Cc1ccnc(N2C(=O)CC[C@H]2C(=O)N(c2cncc(F)c2)[C@H](C(=O)NC2CC(F)(F)C2)c2ccccc2Cl)c1 | PHGDH | enzyme activity |  | 100 µM |  | inhibition | no inhibition |
| C/C=C/C(=O)Nc1ccc2nc(NCCCCCN(C)C)nc(NCCCCCCN(C)C)c2c1 | PRDM9 (Homo sapiens, UniProt Q9NQV7) | enzyme activity, inhibitor, radiometric |  | 10 µM |  | inhibition | 47% |
| O=C1c2sc(-c3ccc(N4CCC(CO)CC4)nc3F)nc2CCN1c1cccnc1 | GABA-gated chloride channel | radioligand binding |  | 1 µM, added: antagonist radioligand |  | inhibition | 18% |
